Assay results pooled from the literature.
Each line is one published result; not all experiments were run side by side.
Target: Serine/threonine-protein kinase NIM1 (NIM1K, Homo sapiens, UniProt Q8IY84)

Nc1ncc2c(n1)-c1c([nH]c3ccc(C4=CCOCC4)cc13)CCC2 — remaining binding (binding, competition with immobilised ligand; 1 µM): 91%
CCn1cc(C(=O)O)c(=O)c2c(N)c(F)c(NC3CCCCC3)cc21 — inhibition (kinase activity; 0.1 µM, together with: ATP at Km): -13.9%
O=C(Cc1ccc(OCc2ccccc2)cc1)NC1(C(=O)O)CCN(C(=O)c2ccc(-c3cccc(Cl)c3)cc2)CC1 — activity vs control (enzyme activity, inhibitor; 10 µM): 140%
CNC1C[S+]2CC[S+]3CC[S+](C1)[Ru-4]321([N]=C=S)[n]2c3ccc(OC)cc3c3c4c(c5cc(F)c[n+]1c5c32)C(=O)NC4=O (stereo not shown) — remaining binding (KinomeScan; 0.1 µM; reference: untreated): 90%
CNC(=O)C[C@H](Cc1ccc(C#N)cc1)NC(=O)c1cc(-c2ccc(CN[C@H](C)c3ccc(C)cc3)o2)ccc1Cl — activity vs control (enzyme activity, inhibitor; 1 µM): 97%
C=CC(=O)N1Cc2nc(-c3cc(-c4cc(Cl)cnc4Cl)c(F)cc3F)n(-c3ccncn3)c2C1 — inhibition (cell-free assay, inhibitor; 1 µM): 2.1%
Cc1cnc2nc1Nc1cccc(c1)COC/C=C/COCc1cc(ccc1OCCN1CCOCC1)N2 — remaining binding (binding, competition with immobilised ligand; 0.1 µM): 97%
C=CC(=O)N1CCc2ccc(-n3c(=O)ccc4cnc5ccc(-c6cnn(C)c6)cc5c43)cc21 — remaining binding (KINOMEscan; 1 µM; reference: DMSO control): 100%
CCN1CCN(Cc2ccc(C(=O)Nc3ccc(C)c(NCc4cnc5[nH]ccc5c4OC)c3)cc2C(F)(F)F)CC1 — remaining binding (binding, competition with immobilised ligand; 1 µM): 100%
CC(C)=CC1OC(C)(C)C2C=C3C(=O)C(Cl)=CC(O)C3C3C(O)C4OC4C(=O)C132 (stereo not shown) — remaining binding (cell-free assay, competition with immobilised ligand; 10 µM): 66%
Nc1ncc(-c2cc(-c3cnn(CC(F)(F)F)c3)ncc2F)nc1C(=O)NC1CNCC(F)C1 (stereo not shown) — remaining activity (enzyme activity; 1 µM; reference: DMSO control): 102%
C=CC(=O)N1CCCC(n2c(=O)c3ncccc3n(Cc3ccc(Oc4ccccc4)cc3)c2=O)C1 (stereo not shown) — remaining binding (cell-free assay, competition with immobilised ligand; 1 µM): 73%
COc1cc(Nc2nc(C)cc(-c3cnn4nc(OC)ccc34)n2)cc(C(F)(F)F)c1 — remaining binding (KINOMEscan binding; 1000 nM; reference: control): 94%
CN1CC[C@@H](COc2cnc(C#N)cc2-c2ccn3nc(NC(=O)C4CC4)cc3c2)C1 — inhibition (enzyme activity, inhibitor; 1 µM): 8%
COc1cc(Nc2nccc(-c3cnn4nc(OC)ccc34)n2)cc(C(F)(F)F)c1 — remaining binding (binding, competition with immobilised ligand; 1 µM): 100%
CNC(=O)C1CCN(c2cc(C)c(F)cc2NC(=O)c2ccc(-c3cc(O)ccc3C)c(C)c2)CC1 — remaining binding (binding, competition with immobilised ligand; 1 µM): 89%
COc1c(Cl)cccc1Nc1c(-c2ccncc2C#C[C@@]2(C)CCCN2C(=O)/C=C/CN(C)C)[nH]c2c1C(=O)NCC2 — remaining binding (binding, competition with immobilised ligand; 3 µM): 48%
Cc1ccc(-c2c(/C=C(\C#N)C(=O)NC(C)C)n(CCCO)c3ncnc(N)c23)cc1 — remaining binding (cell-free assay, competition with immobilised ligand; 1 µM): 100%
CN1CCN(Cc2ccc(-c3ccc(CO[C@H]4CCC[C@@H]4NC(=O)c4cc(-c5cnn(C)c5)cnc4N)cc3)cc2)CC1 — inhibition (enzyme activity, inhibitor; 0.1 µM): 0%

Some of these lines once more:
CN1CCN(Cc2ccc(-c3ccc(CO[C@H]4CCC[C@@H]4NC(=O)c4cc(-c5cnn(C)c5)cnc4N)cc3)cc2)CC1 — inhibition (enzyme activity, inhibitor; 0.1 µM): 0%
